# Published values gathered from unrelated publications.
# Lines come from different studies, so protocols differ.
# EGFR del746-750: Epidermal growth factor receptor (EGFR, Homo sapiens, UniProt P00533, del746-750)
# EGFR L858R: Epidermal growth factor receptor (EGFR, Homo sapiens, UniProt P00533, L858R)
# EGFR: Epidermal growth factor receptor (EGFR, Homo sapiens, UniProt P00533)
Structure (SMILES),target,test,test system,setting,how to read,quantity,value
CC(C)Oc1cc(N2CCN(C)CC2)ccc1Nc1nc(N)n(C(=O)NCc2ccccc2S(=O)(=O)C(C)C)n1,"EGFR (Homo sapiens, UniProt P00533, del747-752/P753S)",enzyme activity,,10 µM,baseline: control,remaining activity,15%
[2H]c1cc(C)c(NC(=O)c2cnc(Nc3cc(N4CCCCC4)nc(C)n3)s2)c(Cl)c1,"EGFR (Homo sapiens, UniProt P00533, L858R/T790M)",,,0.01 µM,,inhibition,< 30%
C=CC(=O)N1CCC(C(=O)NCC(=O)N2CCN(c3nc(-c4cnc(N)nc4C(F)F)nc(N4CCOCC4)n3)CC2)CC1,EGFR del746-750,KINOMEscan,,1 µM,,remaining binding,95%
CC(C)C[C@H](NC(=O)[C@H](CO)NC(=O)[C@H](CO)NC(=O)CNC(=O)[C@@H]1CCCN1C(=O)[C@H](Cc1ccc(O)cc1)NC(=O)[C@H](CC(C)C)NC(=O)[C@H](CO)NC(=O)[C@H](CS)NC(=O)[C@H](CC(C)C)NC(=O)[C@@H](N)CC(C)C)C(=O)O,"Epidermal growth factor receptor, extracellular domain (EGFR, Homo sapiens, UniProt P00533)","binding, second site, surface plasmon resonance",immobilised soluble EGFR,"model, binding, one to two",,koff,0.00343 s⁻¹
C=CC(=O)N1CCC(COCC(=O)N2CCN(c3nc(-c4cnc(N)nc4C(F)F)nc(N4CCOC[C@@H]4C)n3)CC2)CC1,EGFR L858R,KINOMEscan,,1 µM,baseline: DMSO control,remaining binding,89%
COc1cc(N2CCN(C)CC2)ccc1Nc1nc(N)n(C(=S)NCc2c(Cl)cccc2Cl)n1,EGFR del746-750,enzyme activity,,10 µM,baseline: control,remaining activity,2.1%
CCCOc1ccc(OC)c(F)c1C(=O)c1ccc(C(=O)N[C@@H]2CNC[C@H]2NC(=O)c2ccc3[nH]ncc3c2)cc1,EGFR L858R,enzyme activity,,10 µM,,remaining activity,77%
COc1ccc(-c2nn(-c3ccc(S(C)(=O)=O)cc3)cc2/C=N/N=c2\[nH]c(-c3ccc(Br)cc3)cs2)cc1,EGFR L858R,"kinase activity, inhibitor",,1 µM,,inhibition,73%
O=C(NC1CCC1)c1ccc2nc(-c3cccc(NS(=O)(=O)NCCN4CCCCC4)c3)cn2c1,"EGFR (Homo sapiens, UniProt P00533, G719S)",enzyme activity,,10 µM,,remaining activity,100%
C#Cc1cc(-c2cc(Nc3nc(N[C@@H](C)c4ccc(F)cn4)ncc3Cl)n[nH]2)ccc1C=O,"EGFR (Homo sapiens, UniProt P00533, C797S)","enzyme activity, inhibitor",,0.2 µM,,inhibition,9.9%
COc1cc(N2CCN(C)CC2)ccc1Nc1nc(N)n(C(=O)NCc2ccccc2S(=O)(=O)C(C)C)n1,EGFR L858R,enzyme activity,,10 µM,baseline: control,remaining activity,6.2%
CC(C)C[C@H](NC(=O)[C@H](CO)NC(=O)[C@H](CO)NC(=O)CNC(=O)[C@@H]1CCCN1C(=O)[C@H](Cc1ccc(O)cc1)NC(=O)[C@H](CC(C)C)NC(=O)[C@H](CO)NC(=O)[C@H](CS)NC(=O)[C@H](CC(C)C)NC(=O)[C@H](CC(C)C)NC(=O)CCCCCNC(=S)Nc1ccc2c(c1)C(=O)OC21c2ccc(O)cc2Oc2cc(O)ccc21)C(=O)O,EGFR,"binding, second site, LigandTracer cell binding",A-431,"FITC-labelled, model, binding, one to two",,koff,6.29e-05 s⁻¹
COc1cc2ncnc(Nc3ccc(F)c(Cl)c3)c2cc1OCCCN1CCN(C(=O)CCCCCCCCCCNC(=O)C[C@H](NC(=O)[C@@H]2C[C@@H](O)CN2C(=O)[C@@H](c2cc(C)no2)C(C)C)c2ccc(-c3scnc3C)cc2)CC1,EGFR del746-750,"protein degradation, degrader, western blot",HCC827,100 nM,,duration of degradation,≤ 48 h
CCOc1cc(N2CCN(C)CC2)ccc1Nc1nc(N)n(C(=O)NCc2ccccc2S(=O)(=O)C(C)C)n1,"EGFR (Homo sapiens, UniProt P00533, del752-759)",enzyme activity,,10 µM,baseline: control,remaining activity,12%
COc1ccc(-c2nn(-c3ccc(S(C)(=O)=O)cc3)cc2C=N/N=c2\[nH]c(-c3ccc([N+](=O)[O-])cc3)cs2)cc1,EGFR,"kinase activity, inhibitor",,0.1 µM,,inhibition,40.9%
C[C@@H](c1ccc(-n2cnc3c(N)ncnc32)cc1)N1CCc2nn(C)c(Cc3ccccc3)c2C1=O,"EGFR (Homo sapiens, UniProt P00533, L861Q)",KINOMEscan,,0.1 µM,baseline: DMSO control,remaining binding,72%
COc1cc(N2CCN(C)CC2)ccc1Nc1nc(N)n(C(=O)NCc2c(Cl)cccc2Cl)n1,"EGFR (Homo sapiens, UniProt P00533, A750P/del747-749)",enzyme activity,,10 µM,baseline: control,remaining activity,7.1%
CC(C)Cc1ccc(-c2nn(-c3ccc(S(C)(=O)=O)cc3)cc2/C=N/N=c2\[nH]c(-c3ccc([N+](=O)[O-])cc3)cs2)cc1,EGFR,"kinase activity, inhibitor",,100 µM,,inhibition,91.4%
